Published values gathered from unrelated publications.
HRS1: HRS1 1-344 (Arabidopsis thaliana, UniProt Q9FX67)
Chain of UniProt Q9FX67 (whole entry, looked up): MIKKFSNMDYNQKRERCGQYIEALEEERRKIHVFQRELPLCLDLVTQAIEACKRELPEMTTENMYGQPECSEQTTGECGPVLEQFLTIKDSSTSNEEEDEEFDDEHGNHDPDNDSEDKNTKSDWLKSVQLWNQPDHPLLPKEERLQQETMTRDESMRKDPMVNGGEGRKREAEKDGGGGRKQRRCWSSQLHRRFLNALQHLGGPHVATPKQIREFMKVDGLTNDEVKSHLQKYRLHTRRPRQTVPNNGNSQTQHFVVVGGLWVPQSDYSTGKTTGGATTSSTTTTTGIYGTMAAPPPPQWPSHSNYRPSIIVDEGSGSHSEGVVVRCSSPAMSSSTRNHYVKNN
CHES-1-like: CHES-1-like 700-785 (Drosophila melanogaster, UniProt Q9W3Q5)
GZF1: GZF1 250-711 (Homo sapiens, UniProt Q9H116)
Chain of UniProt Q9H116 (whole entry, unmodified, looked up): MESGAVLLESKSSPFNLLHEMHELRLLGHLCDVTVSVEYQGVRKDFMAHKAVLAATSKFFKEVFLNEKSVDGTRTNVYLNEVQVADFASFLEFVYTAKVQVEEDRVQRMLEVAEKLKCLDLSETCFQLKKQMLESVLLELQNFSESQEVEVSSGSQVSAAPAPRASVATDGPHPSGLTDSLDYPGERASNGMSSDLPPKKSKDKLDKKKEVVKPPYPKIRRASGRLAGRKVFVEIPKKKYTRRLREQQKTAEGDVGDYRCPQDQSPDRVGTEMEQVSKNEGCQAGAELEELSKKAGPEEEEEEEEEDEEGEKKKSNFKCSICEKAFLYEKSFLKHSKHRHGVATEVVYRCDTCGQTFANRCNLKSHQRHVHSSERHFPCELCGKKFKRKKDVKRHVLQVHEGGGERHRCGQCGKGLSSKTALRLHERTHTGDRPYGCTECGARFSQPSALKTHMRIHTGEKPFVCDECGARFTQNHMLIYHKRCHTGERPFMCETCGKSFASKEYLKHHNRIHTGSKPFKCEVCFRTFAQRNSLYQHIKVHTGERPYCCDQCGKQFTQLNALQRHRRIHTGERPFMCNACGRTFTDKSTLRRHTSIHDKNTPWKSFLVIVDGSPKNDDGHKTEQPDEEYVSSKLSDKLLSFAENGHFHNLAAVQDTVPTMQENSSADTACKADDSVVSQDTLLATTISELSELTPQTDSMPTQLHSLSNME
RC3H1: RC3H1 89-407 (Homo sapiens, UniProt Q5TC82)
Chain of UniProt Q5TC82 (whole entry, looked up): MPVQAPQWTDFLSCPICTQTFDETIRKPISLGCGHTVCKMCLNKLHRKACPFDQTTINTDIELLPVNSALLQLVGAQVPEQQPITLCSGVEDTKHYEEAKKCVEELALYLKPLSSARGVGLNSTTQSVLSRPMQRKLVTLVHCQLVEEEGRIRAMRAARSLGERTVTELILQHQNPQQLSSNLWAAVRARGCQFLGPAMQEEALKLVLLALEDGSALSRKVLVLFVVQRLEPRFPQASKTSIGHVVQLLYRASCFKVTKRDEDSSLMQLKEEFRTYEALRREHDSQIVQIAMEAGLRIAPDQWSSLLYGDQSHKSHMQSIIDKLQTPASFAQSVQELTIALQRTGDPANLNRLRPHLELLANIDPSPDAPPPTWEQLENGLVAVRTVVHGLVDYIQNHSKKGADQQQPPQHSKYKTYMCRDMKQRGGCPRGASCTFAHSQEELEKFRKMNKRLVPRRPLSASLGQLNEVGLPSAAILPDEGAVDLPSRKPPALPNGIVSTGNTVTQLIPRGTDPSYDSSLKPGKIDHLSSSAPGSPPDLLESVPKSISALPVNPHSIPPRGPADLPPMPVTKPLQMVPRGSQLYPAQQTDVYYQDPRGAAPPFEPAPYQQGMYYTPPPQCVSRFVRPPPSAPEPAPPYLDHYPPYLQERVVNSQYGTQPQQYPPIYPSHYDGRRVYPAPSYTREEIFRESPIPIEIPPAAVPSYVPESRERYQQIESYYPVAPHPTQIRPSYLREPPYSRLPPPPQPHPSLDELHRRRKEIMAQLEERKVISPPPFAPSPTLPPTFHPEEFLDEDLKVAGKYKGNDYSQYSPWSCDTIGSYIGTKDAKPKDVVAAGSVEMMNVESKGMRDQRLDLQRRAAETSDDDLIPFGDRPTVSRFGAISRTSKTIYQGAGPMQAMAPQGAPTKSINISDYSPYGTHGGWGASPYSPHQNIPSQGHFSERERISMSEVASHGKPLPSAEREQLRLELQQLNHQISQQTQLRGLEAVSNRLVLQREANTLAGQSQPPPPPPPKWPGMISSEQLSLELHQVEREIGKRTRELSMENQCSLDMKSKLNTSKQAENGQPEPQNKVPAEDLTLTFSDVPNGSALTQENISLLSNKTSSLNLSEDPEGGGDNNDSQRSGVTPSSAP
T1: loqs Loqs-PD, 1-359 (Drosophila melanogaster); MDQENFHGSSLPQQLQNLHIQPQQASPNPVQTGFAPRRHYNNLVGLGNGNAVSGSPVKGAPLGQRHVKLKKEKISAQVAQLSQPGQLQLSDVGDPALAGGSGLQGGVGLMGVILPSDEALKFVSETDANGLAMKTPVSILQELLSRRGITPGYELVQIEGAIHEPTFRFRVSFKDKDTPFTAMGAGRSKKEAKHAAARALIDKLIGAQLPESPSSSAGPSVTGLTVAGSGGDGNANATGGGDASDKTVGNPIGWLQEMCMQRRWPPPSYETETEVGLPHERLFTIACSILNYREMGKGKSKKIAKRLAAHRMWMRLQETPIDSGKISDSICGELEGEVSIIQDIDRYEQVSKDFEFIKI
Chain of UniProt P14866 (whole entry, looked up): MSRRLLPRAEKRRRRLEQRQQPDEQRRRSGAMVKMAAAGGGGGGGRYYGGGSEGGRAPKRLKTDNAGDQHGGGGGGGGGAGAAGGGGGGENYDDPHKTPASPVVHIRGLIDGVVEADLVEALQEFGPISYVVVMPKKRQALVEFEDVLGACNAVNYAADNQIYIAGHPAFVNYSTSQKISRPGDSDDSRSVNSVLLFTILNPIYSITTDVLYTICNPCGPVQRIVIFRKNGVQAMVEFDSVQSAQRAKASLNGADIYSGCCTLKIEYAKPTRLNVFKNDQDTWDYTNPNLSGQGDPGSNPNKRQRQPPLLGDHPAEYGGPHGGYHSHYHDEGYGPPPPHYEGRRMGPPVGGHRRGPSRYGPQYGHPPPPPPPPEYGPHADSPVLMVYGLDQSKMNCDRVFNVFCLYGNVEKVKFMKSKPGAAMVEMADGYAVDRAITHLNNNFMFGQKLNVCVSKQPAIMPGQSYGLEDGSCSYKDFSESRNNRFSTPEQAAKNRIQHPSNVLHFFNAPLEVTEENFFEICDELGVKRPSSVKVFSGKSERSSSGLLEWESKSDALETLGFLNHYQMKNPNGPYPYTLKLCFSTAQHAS
Chain of UniProt Q9NY12 (whole entry, looked up): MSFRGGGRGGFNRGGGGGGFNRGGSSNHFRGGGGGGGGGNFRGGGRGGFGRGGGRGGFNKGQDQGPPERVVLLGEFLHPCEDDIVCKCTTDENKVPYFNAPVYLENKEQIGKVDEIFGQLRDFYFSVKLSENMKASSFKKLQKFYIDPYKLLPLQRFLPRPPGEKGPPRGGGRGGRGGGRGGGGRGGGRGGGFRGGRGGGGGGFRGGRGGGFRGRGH
Chain of UniProt Q9BWT1 (whole entry, looked up): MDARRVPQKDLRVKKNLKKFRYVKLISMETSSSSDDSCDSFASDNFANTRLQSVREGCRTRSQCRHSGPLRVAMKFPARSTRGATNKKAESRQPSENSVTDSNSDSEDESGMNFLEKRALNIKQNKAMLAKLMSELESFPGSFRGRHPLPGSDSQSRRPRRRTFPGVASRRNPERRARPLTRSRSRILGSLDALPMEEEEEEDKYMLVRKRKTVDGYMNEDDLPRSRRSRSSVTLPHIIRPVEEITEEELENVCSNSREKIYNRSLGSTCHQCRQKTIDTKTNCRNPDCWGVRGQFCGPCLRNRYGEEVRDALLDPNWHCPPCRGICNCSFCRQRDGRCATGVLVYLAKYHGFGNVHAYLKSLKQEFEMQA
Chain of UniProt P84022 (whole entry, looked up): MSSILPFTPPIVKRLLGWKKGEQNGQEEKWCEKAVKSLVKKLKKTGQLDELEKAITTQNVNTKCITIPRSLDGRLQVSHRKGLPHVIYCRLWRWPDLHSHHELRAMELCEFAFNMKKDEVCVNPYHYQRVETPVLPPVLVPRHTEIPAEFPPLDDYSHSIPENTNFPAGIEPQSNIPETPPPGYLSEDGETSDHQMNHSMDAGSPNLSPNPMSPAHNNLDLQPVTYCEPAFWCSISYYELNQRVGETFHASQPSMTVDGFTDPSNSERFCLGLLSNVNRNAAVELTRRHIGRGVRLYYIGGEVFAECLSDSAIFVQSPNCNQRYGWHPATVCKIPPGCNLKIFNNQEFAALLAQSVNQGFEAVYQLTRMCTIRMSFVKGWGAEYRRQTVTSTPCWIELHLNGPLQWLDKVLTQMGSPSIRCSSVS
Chain of UniProt P30014 (whole entry, looked up): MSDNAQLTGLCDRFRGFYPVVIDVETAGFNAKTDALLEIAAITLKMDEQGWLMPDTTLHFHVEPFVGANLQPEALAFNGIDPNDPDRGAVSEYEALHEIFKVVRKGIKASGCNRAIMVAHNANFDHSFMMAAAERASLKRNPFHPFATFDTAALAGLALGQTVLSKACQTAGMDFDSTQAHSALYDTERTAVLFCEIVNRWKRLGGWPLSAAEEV

GGAGTATCCGAACCCAAACCGAAAAGTGAATT (dsDNA)
binding (HRS1; EMSA; double-stranded DNA, one strand shown): binds

TTCCGGGTTGCCTATTCAGATT (dsDNA)
binding (CHES-1-like; competition; double-stranded DNA, one strand shown; not purified): no binding

GATCTCTGCGTGCATATCTATAGCCTACTG (dsDNA)
binding (GZF1; competition; double-stranded DNA, one strand shown): no binding

UGAGUGUGUGUGUGUGAGUGUGU (ssRNA)
binding (HNRNPL full length assumed (Homo sapiens, UniProt P14866); EMSA; RNA): no binding

ATAAACCCCAAAACCTAACCGAACCAGAAAGG (dsDNA)
binding (HRS1; EMSA; double-stranded DNA, one strand shown): binds

TTAAGTTTCGGCATATCTTG (dsDNA)
binding (OsWRKY53 full length assumed (Oryza sativa, UniProt A7BEY7); EMSA; double-stranded DNA, one strand shown): no binding

CACGCUCAUGCACACACCCACA (ssRNA)
binding (HNRNPL 102-176 (Homo sapiens, UniProt P14866); EMSA; RNA): no binding

RNA 1 AUGUUUUCGC / RNA 2 GCGAAAACGG (dsRNA; duplex of two strands)
binding (RC3H1; EMSA; double-stranded RNA): binds

TATTTGGAATGCGCCGCTACGAACCCGGCT (dsDNA)
binding (GZF1; competition; double-stranded DNA, one strand shown): no binding

CTTCCTCCAGATGAGCTCATGGGTTTCTCCACCAAGGAAGTTTTCCGCTGGTTG (dsDNA)
binding (NFAT5 264-544 (Homo sapiens, UniProt O94916); EMSA; double-stranded DNA, one strand shown): binds

AGGGGGCCGUGGGGUGGGAGCUGGGG (G-quadruplex RNA; G4)
binding (GAR1 (Homo sapiens, UniProt Q9NY12); EMSA; folded RNA; 100 nM): binds

GGCCCTCTTTAGGGCCTAA (ssDNA)
binding (rnt 1-215 (Escherichia coli, UniProt P30014); X-ray crystallography; single-stranded DNA; added: Mg2+): binds

TATTTGGAATGCGTTGCTATAAACCCGGCT (dsDNA)
binding (GZF1; competition; double-stranded DNA, one strand shown): no binding

ACAUGUUUUCUGUGAAAACGGAG (structured RNA; hairpin, 3-nt loop)
binding (RC3H1; gel filtration; folded RNA): binds

ATCAGTCTAGACATACA (dsDNA)
binding (SMAD3 1-145 (Homo sapiens, UniProt P84022); EMSA; double-stranded DNA, one strand shown): binds

GATCTCTGCGTGCGCGTCTATAGCCTACTG (dsDNA)
binding (GZF1; EMSA; double-stranded DNA, one strand shown; supershift with anti-GST): binds

RNA 1 UAAUACUGUCAGGUAAAGAUGUC / RNA 2 CAUCUUUACCUGACAGUAUUAGA (dsRNA)
binding (T1, loqs Loqs-PD, 1-359 (Drosophila melanogaster); fluorescence anisotropy; double-stranded RNA): binds

AAGAAAATTGAGAGAGAGAGAAATTAGCTAGA (dsDNA)
binding (HRS1; EMSA; double-stranded DNA, one strand shown): binds

TATTTGGAATGCGCCATTATAAACCCGGCT (dsDNA)
binding (GZF1; competition; double-stranded DNA, one strand shown): no binding

TTCCGGGTTGTTTATTCAGATT (dsDNA)
binding (CHES-1-like; EMSA; double-stranded DNA, one strand shown; not purified): binds

GGGAACAGCCCAAUCAUCUAUCACGAAUCGGGGCUAUGCGUGAAAACAGAAGUUCACAGCAUAGCUCCUUUUUGUAUGGGCGCUUUACC (structured RNA)
binding (hutP full length assumed V51I (Bacillus subtilis, UniProt P10943); filter binding; folded RNA; added: L-His, Mg2+): no binding

TATTTGGAATGCGCCGCTGCGAACCCGGCT (dsDNA)
binding (GZF1; competition; double-stranded DNA, one strand shown): no binding

CAACGCCCTGTCGGTGAGAAACCGTTTGCA (DNA; hairpin)
binding (CDCA7 235-371 (Homo sapiens, UniProt Q9BWT1); EMSA; folded DNA): binds

GATCTCTGCGTGCGTATCTATAGCCTACTG (dsDNA)
binding (GZF1; competition; double-stranded DNA, one strand shown): no binding

TTAATGGTTTGTTGTTGTCGCCA (dsDNA)
binding (CHES-1-like; EMSA; double-stranded DNA, one strand shown; not purified): binds
